Measured values collected from several papers.
Compare with care: the assays were run in different laboratories. ≈ marks a conversion by molar mass, not a printed value.
Organism: Staphylococcus aureus

SMILES = CCOC(=O)c1cnc(N/N=C/c2c(-c3ccc(C#N)cc3)nc3ncccn23)s1; test = microbial growth, well diffusion; test system = ATCC23235; setting = 100 µg/mL; quantity = inhibition zone; result = 16 mm
SMILES = CC(C)C[C@H](NC(=O)[C@H](C)NC(=O)[C@@H](N)C(C)C)C(=O)N[C@@H](CC(=O)O)C(=O)N[C@@H](CC(C)C)C(=O)N[C@@H](CC(C)C)C(=O)N[C@@H](CCC(N)=O)C(=O)N[C@@H](Cc1ccc(O)cc1)C(=O)O; test = OD600; test system = methicillin-resistant DMST 20646; setting = concentration not given, 18 to 22 h, 37 °C, unheated; quantity = growth inhibition; result = 17.9%
SMILES = CC[C@H](C)[C@@H]1NC(=O)CNC(=O)CNC(=O)[C@H](CO)NC(=O)[C@H]([C@@H](C)CC)NC(=O)[C@H](CCCCN)NC(=O)[C@H](CO)NC(=O)[C@H](CC(C)C)NC(=O)[C@@H](C(C)C)NC(=O)[C@@H]2CCCN2C(=O)[C@H]([C@@H](C)CC)NC(=O)[C@H](C(C)C)NC(=O)[C@H](CC(C)C)NC(=O)[C@@H]2CCCN2C(=O)CNC1=O; test = time-kill; test system = ATCC 25923; setting = MIC; quantity = time to 5-log CFU reduction; result = ≤ 6 h
SMILES = CCCCc1ccc(-c2nc(C)c(C(C)=NNC(=N)N)s2)cc1; test system = NRS1 VISA; quantity = MBC; result = 2.6 µg/mL (≈ 7.89 µM)
SMILES = CC[C@H](C)[C@@H]1NC(=O)[C@@H]2CSSC[C@@H]3NC(=O)[C@H](C(C)C)NC(=O)CNC(=O)CNC(=O)[C@H](CCCNC(=N)N)NC(=O)[C@H](CCCNC(=N)N)NC(=O)CNC(=O)[C@H](C(C)C)NC(=O)[C@@H]4CSSC[C@H](NC(=O)[C@H](CC(C)C)NC(=O)[C@H](CCCNC(=N)N)NC(=O)CNC(=O)CNC(=O)[C@H](CO)NC(=O)CNC(=O)[C@H](CO)NC(=O)CNC(=O)[C@@H]5CSSC[C@H](NC(=O)[C@H](CC(=O)O)NC(=O)[C@H](CO)NC(=O)[C@H](CC(=O)O)NC(=O)[C@H](CCCNC(=N)N)NC(=O)[C@H](CCCNC(=N)N)NC(=O)[C@H](CSSC[C@H](NC1=O)C(=O)N[C@@H](CCCNC(=N)N)C(=O)NCC(=O)N[C@@H](CC(N)=O)C(=O)NCC(=O)N[C@@H](Cc1ccc(O)cc1)C(=O)N5)NC(=O)[C@H](CCCNC(=N)N)NC(=O)[C@H](CCC(N)=O)NC(=O)[C@H](CC(C)C)NC(=O)[C@H]([C@@H](C)CC)NC(=O)[C@H](CCCCN)NC(=O)[C@@H]1CCCN1C3=O)C(=O)N1CCC[C@H]1C(=O)NCC(=O)N[C@@H](C)C(=O)N2)C(=O)N[C@@H](Cc1ccc(O)cc1)C(=O)N[C@H]1CSSC[C@H](NC(=O)[C@H](Cc2ccccc2)NC(=O)[C@H](CCCNC(=N)N)NC(=O)[C@H](CCCNC(=N)N)NC(=O)[C@H](CCCNC(=N)N)NC1=O)C(=O)N[C@@H](C(C)C)C(=O)N4; test system = CAMHB; quantity = MIC90; result = 12.5 µM (≈ 68.8 µg/mL)
SMILES = CC(C)C1=CC2=CCC3C(C)(C(=O)OCCC[N+](C)(C)C)CCCC3(C)C2CC1 (stereo not shown); test system = MRSA ATCC BAA-44, mouse red blood cells; how to read = reference: HC50 over MIC; quantity = selectivity index; result = 8.2
SMILES = CC1=C[C@@H](C)[C@H]2[C@@H]3C(=O)C(Cl)(Cl)C(=O)[C@H](C)C(=O)O[C@@H](C)/C=C/C=C\[C@@H](C)[C@@H]3C=C[C@@H]2C1; test system = Newman resistant mutants; how to read = reference: mutant over wild type; quantity = MIC ratio; result = ~10 fold
SMILES = CC[C@H](C)[C@H](NC(=O)[C@H](CCCN)NC(=O)[C@H](CC(N)=O)NC(=O)[C@H](Cc1c[nH]c2ccccc12)NC(=O)[C@H](Cc1ccccc1)NC(=O)[C@H](CCCN)NC(=O)[C@H](CCCCNC(=N)N)NC(=O)[C@H](CC(C)C)NC(=O)[C@H](Cc1c[nH]c2ccccc12)NC(=O)[C@H](CCCN)NC(=O)[C@H](CCCCNC(=N)N)NC(=O)[C@H](CC(C)C)NC(=O)CNC(C)=O)C(=O)N[C@@H](CCCN)C(=O)N[C@@H](CCCCNC(=N)N)C(N)=O; test = crystal violet staining; setting = 4 × MIC, 24 h; quantity = biofilm formation inhibition; result = ≤ 42.9%
SMILES = Cc1cc(=O)nc(NC(=O)NCCCCCCNC(=O)NCCCCCCNC(=O)OCCOCCOCCOCCOCCOCCOCC(=O)N[C@@H](CC(C)C)C(=O)N[C@@H](CCCCN)C(=O)N[C@@H](CC(C)C)C(=O)N[C@@H](CC(C)C)C(=O)N[C@@H](CCCCN)C(=O)N[C@@H](CCCCN)C(=O)N[C@@H](CC(C)C)C(=O)N[C@@H](CC(C)C)C(=O)N[C@@H](CCCCN)C(=O)N[C@@H](CCCCN)C(=O)N[C@@H](CC(C)C)C(=O)N[C@@H](CC(C)C)C(=O)N[C@@H](CCCCN)C(=O)N[C@@H](CC(C)C)C(=O)N[C@@H](CC(C)C)C(N)=O)[nH]1; test system = MSSA RN 4220, RPMI medium; setting = 24 h, 37 °C; quantity = LC99.9; result = 3.7 µM
SMILES = [Cl-].[Cl-].[Ru+2].c1ccc2nc3c4cccnc4c4ncccc4c3nc2c1.c1ccncc1.c1ccncc1.c1ccncc1.c1ccncc1; test system = MRSA ATCC 43300; setting = LED irradiation 470 nm; quantity = MIC90; result = 16 µM

Repeated from above:
SMILES = CC[C@H](C)[C@H](NC(=O)[C@H](CCCN)NC(=O)[C@H](CC(N)=O)NC(=O)[C@H](Cc1c[nH]c2ccccc12)NC(=O)[C@H](Cc1ccccc1)NC(=O)[C@H](CCCN)NC(=O)[C@H](CCCCNC(=N)N)NC(=O)[C@H](CC(C)C)NC(=O)[C@H](Cc1c[nH]c2ccccc12)NC(=O)[C@H](CCCN)NC(=O)[C@H](CCCCNC(=N)N)NC(=O)[C@H](CC(C)C)NC(=O)CNC(C)=O)C(=O)N[C@@H](CCCN)C(=O)N[C@@H](CCCCNC(=N)N)C(N)=O; test = crystal violet staining; setting = 4 × MIC, 24 h; quantity = biofilm formation inhibition; result = ≤ 42.9%
